Experimental data of several laboratories.
Lines come from different studies, so protocols differ. Numbers after ± are the reported error.
NR1H4: Bile acid receptor (NR1H4, Homo sapiens, UniProt Q96RI1)
DNMT3A catalytic domain: DNA (cytosine-5)-methyltransferase 3A, catalytic domain (DNMT3A, Homo sapiens, UniProt Q9Y6K1)
Sialyltransferase ST3Gal-I: Sialyltransferase ST3Gal-I (Rattus norvegicus, UniProt Q6H8N0)
AKR1C3: Aldo-keto reductase family 1 member C3 (AKR1C3, Homo sapiens, UniProt P42330)
CDK2 with cyclin A2: Cyclin-dependent kinase 2, with cyclin A2 (CDK2, Homo sapiens, UniProt P24941)
MAPT 2N3R isoform: Microtubule-associated protein tau, 2N3R isoform (MAPT, Homo sapiens, UniProt P10636)
Genome polyprotein protease: Genome polyprotein, protease (Dengue virus type 2, UniProt P14340)
ST6GAL1: Beta-galactoside alpha-2,6-sialyltransferase 1 (ST6GAL1, Homo sapiens, UniProt P15907)
Ectonucleoside triphosphate diphosphohydrolase 2: Ectonucleoside triphosphate diphosphohydrolase 2 (Homo sapiens, UniProt Q9Y5L3)
CTSL: Procathepsin L (CTSL, Homo sapiens, UniProt P07711)
SIRT6: NAD-dependent protein deacylase sirtuin-6 (SIRT6, Homo sapiens, UniProt Q8N6T7)

COc1ccc(-c2cc(C(F)(F)F)nc(S(=O)(=O)NCC(=O)Nc3ccc(C)cc3)c2)cc1
inhibition (WRN (Homo sapiens, UniProt Q14191); DNA unwinding, TAMRA dequenching; concentration not given): inactive

CC(C)CCC[C@@H](C)[C@H]1CC[C@@H]([C@@H]2CC[C@H]3C[C@H](O)CC[C@]3(C)C2=O)[C@]1(C)CC(=O)NCCS(=O)(=O)O
inhibition (NR1H4; reporter gene, antagonist, luciferase; HEK-293T; 10 µM): 0.7%

CCn1nc(Cl)c2c1-c1cnc(N)c(c1)O[C@H](C)c1cc(F)ccc1-c1nn(C)cc1C2
inhibition (NTRK2 (Homo sapiens, UniProt Q16620); Ba/F3; 0.1 µM): 2%

Cc1cc(Nc2ccc(NC(=O)c3ccc(NC(=O)c4cccnc4O)cc3)cc2)nc(N)n1
inhibition (DNMT3A catalytic domain; enzyme activity, inhibitor, restriction-based fluorescence; 20 µM): 0%

CC(C)CCC[C@@H](C)[C@H]1CC[C@@H]([C@@H]2CC[C@H]3C[C@H](O)CC[C@]3(C)C2=O)[C@]1(C)CC(=O)NCC(=O)O
inhibition (NR1H4; reporter gene, antagonist, luciferase; HEK-293T; 10 µM): 46.9%

C[C@H](CCC(=O)N[C@H](CC(c1c[nH]c2ccccc12)c1c[nH]c2ccccc12)C(=O)O)[C@H]1CC[C@H]2[C@@H]3CC[C@@H]4C[C@H](O)CC[C@]4(C)[C@H]3CC[C@]12C
inhibition (Sialyltransferase ST3Gal-I; enzyme activity, inhibitor, UPLC; 500 µM): ≤ 3%

C[C@]12CCC[C@H]1[C@@H]1CCc3cc(O)ccc3[C@H]1CC2
inhibition (AKR1C3; enzyme activity, inhibitor, absorbance; 10 µM, pH 9): 23.4%

CC(C)Cn1cc(-c2ccnc(Nc3ccc(N4CCN(CCCCCCC(=O)NO)CC4)cc3)n2)nn1
inhibition (CDK2 with cyclin A2; enzyme activity, inhibitor, TR-FRET; 5 µM): 49.8%

CN(C)c1ccc(NC(=S)N(C)c2ccccc2)cc1
inhibition (MAPT 2N3R isoform; tau fibril formation, ThT fluorescence; 100 µM, tau at 10 µM): 96%

NOCC(=O)O
inhibition (CBS (Homo sapiens, UniProt P35520); enzyme activity, inhibitor; 100 µM): 76%

Oc1c(C(Nc2nccs2)c2ccccc2OCc2ccccc2)ccc2cccnc12 (centres unmarked)
inhibition (Genome polyprotein protease; enzyme activity, inhibitor, fluorescence; 10 µM): 66.8%

CC(=O)c1cnc(N)nc1N1CC[C@H]1c1nn2ccc(Cl)c2c(=O)n1-c1ccccc1
inhibition (Sulfonylurea receptor 2, Kir6.2 (Homo sapiens, UniProt O60706+Q14654); ion current; 3 µM): < 10%

CN(C1COC1)C(C)(C)/C=C(\C#N)C(=O)N1CCC[C@H]1Cn1nc(-c2ccc(Oc3ccccc3)cc2F)c2c(N)ncnc21
inhibition (BMX (Homo sapiens, UniProt P51813); 0.1 µM, mean): > 90%

C[C@@]12CC[C@@H]3c4cc(Cl)c(O)cc4CC[C@H]3[C@@H]1CCC2=O
inhibition (AKR1C3; enzyme activity, inhibitor, absorbance; 100 µM, pH 9): 72.3%

C[C@H](CCC(=O)N[C@H](CC(c1c[nH]c2ccc(N=[N+]=[N-])cc12)c1c[nH]c2ccc(N=[N+]=[N-])cc12)C(=O)O)[C@H]1CC[C@H]2[C@@H]3CC[C@@H]4C[C@H](O)CC[C@]4(C)[C@H]3CC[C@]12C (some centres unmarked)
inhibition (ST6GAL1; enzyme activity, inhibitor, UPLC; 25 µM): 89%

Cc1cc(Nc2ccc(NC(=O)c3ccc(NC(=O)c4ccncc4)cc3)cc2)nc(N)n1
inhibition (DNMT3A catalytic domain; enzyme activity, inhibitor; 10 µM): 5%

C[C@@]12CC[C@@H]3c4cc(Br)c(O)c(Br)c4CC[C@H]3[C@@H]1CCC2=O
inhibition (AKR1C3; enzyme activity, inhibitor, absorbance; 100 µM, pH 9): 50.8%

NCCC(=O)N[C@@H](Cc1c[nH]c2ccccc12)C(=O)N[C@@H](Cc1ccc(Cl)cc1)C(=O)N[C@@H](Cc1ccccc1)C(N)=O
inhibition (EphA2; ephrin-A5 binding, ELISA; 500 µM): < 15%

Oc1c(C(Nc2nc3ccccc3s2)c2ccccc2OCc2ccccc2)ccc2cccnc12 (centres unmarked)
inhibition (Genome polyprotein protease; enzyme activity, inhibitor, fluorescence; 25 µM): 85.5%

COc1ccc2c(c1)CC[C@@H]1[C@@H]2CC[C@@]2(C)CCC[C@@H]12
inhibition (AKR1C3; enzyme activity, inhibitor, absorbance; 100 µM, pH 9): 49.2%

O=C(Oc1nsnc1N1CCOCC1)N1CCOCC1
inhibition (Beta-lactamase TEM (bla, Escherichia coli, UniProt P62593); enzyme activity, inhibitor, colorimetric nitrocefin; up to 300 µM): no inhibition

CC(C)Cn1cc(-c2ccnc(Nc3ccc(C(=O)Nc4ccccc4N)cc3)n2)nn1
inhibition (CDK2 with cyclin A2; enzyme activity, inhibitor, TR-FRET; 50 nM): 5.2%

COc1ccc2c(c1Br)CC[C@@H]1[C@@H]2CC[C@@]2(C)C(=O)CC[C@@H]12
inhibition (AKR1C3; enzyme activity, inhibitor, absorbance; 100 µM, pH 9): 39.7%

S=C(Nc1ccc(Cl)cc1)Nc1cccc2[nH]ccc12
inhibition (MAPT 2N3R isoform; tau fibril formation, ThT fluorescence; 100 µM, tau at 10 µM): 79%

O=C(Nc1ccc(Cl)cc1)c1cccc(S(=O)(=O)Nc2ccc(Cl)cc2)c1
inhibition (Ectonucleoside triphosphate diphosphohydrolase 2; enzyme activity, inhibitor, absorbance; 100 µM): 35%

COC(=O)[C@@H](CC(c1c[nH]c2ccccc12)c1c[nH]c2ccccc12)NC(=O)CC[C@@H](C)[C@H]1CC[C@H]2[C@@H]3CC[C@@H]4C[C@H](OC(C)=O)CC[C@]4(C)[C@H]3CC[C@]12C
inhibition (ST6GAL1; enzyme activity, inhibitor, UPLC; 25 µM): 61%

Cc1ccc(C(C)C)cc1.Cc1ncc(CO)c(C=NNC2=Nc3ccccc3-c3[nH]c4ccc(Br)cc4c3C2)c1O.[Cl-].[Cl][Ru+]
inhibition (Cyclin-dependent kinase 2, with cyclin E (CDK2, Homo sapiens, UniProt P24941); enzyme activity, inhibitor, radiometric; 10 µM): 37%

O=C(O)C(=O)N[C@H](Cc1ccccc1)C(=O)O
inhibition (Egl nine homolog 1 (EGLN1, Homo sapiens, UniProt Q9GZT9); CODD peptide hydroxylation, MALDI-TOF MS; concentration not given): inactive

C[C@H](CCC(=O)N[C@H](CC(c1c[nH]c2ccc(F)cc12)c1c[nH]c2ccc(F)cc12)C(=O)O)[C@H]1CC[C@H]2[C@@H]3CC[C@@H]4C[C@H](O)CC[C@]4(C)[C@H]3CC[C@]12C
inhibition (Sialyltransferase ST3Gal-I; enzyme activity, inhibitor, UPLC; 500 µM): 1%

CCOc1c(C(C)(C)O)sc2cnc(Nc3ccc(N4CCC(N5CC6(COC6)C5)CC4)cc3OC)nc12
inhibition (CAMK1D (Homo sapiens, UniProt Q8IU85); enzyme activity, inhibitor; 0.1 µM): 61%

COc1c(-c2cccc(O)c2)oc2c(OC)c(O)cc(O)c2c1=O
inhibition (MAL12 (Saccharomyces cerevisiae S288c, UniProt P53341); enzyme activity, p-nitrophenyl glucoside substrate; 10 µM, series down to 1 µM): 74.9 ± 1.5%

CC(C)c1ccc(C(=O)Nc2ccc(CN)cc2)c(O)c1
inhibition (CTSL; enzyme activity, inhibitor; 10 µM): < 20%

C[C@]12CC[C@@H]3c4ccc(O)c(I)c4CC[C@H]3[C@@H]1CCC2=O
inhibition (AKR1C3; enzyme activity, inhibitor, absorbance; 10 µM, pH 9): 36.4%

O=C(Nc1cccc(C(=O)Nc2ccc3[nH]ncc3c2)c1)Nc1cc(C(F)(F)F)ccc1F
inhibition (NTRK1 (Homo sapiens, UniProt P04629); enzyme activity, inhibitor, FRET; 1 µM): 80.3%

O=C(CCCCCCN1CCN(c2ccc(Nc3ncc(F)c(-c4cn(C5CCCC5)nn4)n3)cc2)CC1)NO
inhibition (HDAC5 (Homo sapiens, UniProt Q9UQL6); enzyme activity, inhibitor; 500 nM): no effect

NC(=O)c1cn(CC(=O)NC[C@H](NC(=O)CCc2nc(-c3cccnc3)no2)C(=O)N[C@H]2C[C@H](C(=O)NO)C2)c(=O)[nH]c1=O
inhibition (SIRT6; demyristoylation; 10 µM): 1%

Oc1c(C(Nc2nccs2)c2cccc(OCc3ccccc3)c2)ccc2cccnc12 (centres unmarked)
inhibition (Genome polyprotein, NS2B-NS3 protease (Dengue virus type 2, UniProt P14340); enzyme activity, inhibitor, fluorogenic; 10 µM, 0.1% CHAPS, added: Bz-Nle-Lys-Arg-Arg-AMC substrate): 83.6 ± 1.21%

O=C(O)c1cc(S(=O)(=O)Nc2ccc(Br)cc2)ccc1Cl
inhibition (Ectonucleoside triphosphate diphosphohydrolase 2; enzyme activity, inhibitor, absorbance; 100 µM): 22%

C[C@@]12CC[C@@H]3c4cc(I)c(O)c(I)c4CC[C@H]3[C@@H]1CCC2=O
inhibition (AKR1C3; enzyme activity, inhibitor, absorbance; 10 µM, pH 9): 2.6%

CC1(CN)CCN(c2cnc(Sc3cccc(Cl)c3Cl)c(N)n2)CC1
inhibition (PTPN11 (Homo sapiens, UniProt Q06124); enzyme activity; concentration not given, added: DiFMUP): no inhibition

CC(C)C[C@H](NC(=O)[C@H](CCC(N)=O)NC(=O)[C@H](CCCCN)NC(=O)[C@H](CCCNC(=N)N)NC(=O)[C@@H]1CCCN1C(=O)[C@H](C)NC(=O)[C@@H](N)CCCCN)C(=O)N[C@@H](C)C(=O)N[C@H](C(=O)N[C@@H](CCCCN)C(=O)N[C@@H](C)C(=O)N[C@@H](C)C(=O)N[C@@H](CCCNC(=N)N)C(=O)N[C@@H](CCCCN)C(=O)N[C@@H](CO)C(=O)N[C@@H](C)C(=O)N1CCC[C@H]1C(=O)N[C@@H](C)C(=O)O)[C@@H](C)O
inhibition (CTSL; enzyme activity, inhibitor; 25 µM, pH 6.0, 25 °C, 3% DMSO, added: Z-LR-Mca at 0.16 x Km): 85.4 ± 0.3%

COC(=O)[C@H]1C[C@H](NC(=O)[C@H](CNC(=O)Cn2cc(C(N)=O)c(=O)[nH]c2=O)NC(=O)CCc2nc(-c3cccnc3)no2)C1
inhibition (SIRT6; demyristoylation; 10 µM): 34%

C[C@]12CC[C@@H]3c4ccc(O)c(Br)c4CC[C@H]3[C@@H]1CCC2=O
inhibition (AKR1C3; enzyme activity, inhibitor, absorbance; 10 µM, pH 9): 25%

COc1cc(C(=O)NC2CCC(N3CCN(CC4CCC5(CCCC5)C4)CC3)CC2)c(F)cc1Nc1ncc2c(n1)N(C1CCCC1(F)F)CC(F)(F)C(=O)N2C (centres unmarked)
inhibition (PLK3 (Homo sapiens, UniProt Q9H4B4); cell-free assay, TR-FRET; 10 µM): 0.24%

For quick reference, copied from above:
NCCC(=O)N[C@@H](Cc1c[nH]c2ccccc12)C(=O)N[C@@H](Cc1ccc(Cl)cc1)C(=O)N[C@@H](Cc1ccccc1)C(N)=O
inhibition (EphA2; ephrin-A5 binding, ELISA; 500 µM): < 15%

Oc1c(C(Nc2nc3ccccc3s2)c2ccccc2OCc2ccccc2)ccc2cccnc12 (centres unmarked)
inhibition (Genome polyprotein protease; enzyme activity, inhibitor, fluorescence; 25 µM): 85.5%

COc1ccc2c(c1)CC[C@@H]1[C@@H]2CC[C@@]2(C)CCC[C@@H]12
inhibition (AKR1C3; enzyme activity, inhibitor, absorbance; 100 µM, pH 9): 49.2%

O=C(Oc1nsnc1N1CCOCC1)N1CCOCC1
inhibition (Beta-lactamase TEM (bla, Escherichia coli, UniProt P62593); enzyme activity, inhibitor, colorimetric nitrocefin; up to 300 µM): no inhibition

CC(C)Cn1cc(-c2ccnc(Nc3ccc(C(=O)Nc4ccccc4N)cc3)n2)nn1
inhibition (CDK2 with cyclin A2; enzyme activity, inhibitor, TR-FRET; 50 nM): 5.2%
